Measurements from different studies.
Numbered parts are unrelated; each lists some results of a single study.

Set 1
Target: RNA binding protein fox-1 homolog 2, RRM domain, GST-SBP tag (RBFOX2, Homo sapiens, UniProt O43251-10, residues 100-194)
Technique: RNA Bind-n-Seq
Molecule type: RNA
Sample: in vitro
Tested at: 365 nM
Notes: natural RNA segment, single round, ends assumed
Relative to: no-protein control
Direction: higher = stronger binding
Endpoint: RBNS enrichment (R)
Target sequence (chain): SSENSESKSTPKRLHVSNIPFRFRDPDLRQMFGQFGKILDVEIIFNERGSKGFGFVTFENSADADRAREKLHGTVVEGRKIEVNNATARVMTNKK
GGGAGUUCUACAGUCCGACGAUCCCAGCUCAGCUGCUAGGAAGACUUACUUGUCAUGAUUUAUAUAAUAAAAUUAAGGACACUGAAAAUUCUUAUGCUUGAUGAAAAACUUAAGGCUAGCCUAGAAGGGCCAAUGGAAUUCUCGGGUGCCAA: 0.325
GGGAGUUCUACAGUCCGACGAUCCUACAGUUUGUUUAGGAGGCCCUGACCUUCAUGGUGUCUUUGAAGCCCAACCACUCGGUUUCCUUCGGAUUUUCCUCCCUUUGUUCGGGGUUUGGUUUGGCUCCUCUGUGUGGAAUUCUCGGGUGCCAA: 1.28
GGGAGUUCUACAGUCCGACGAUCACGGGGCAUAUUUAAGGGGGCAUCUUUGUGUAAAAGAUGCAUGGAGUCAGGAGAAAACCACCUUCAUAAACUGCUCUGUGCAAAGAGGAAUAAAACAUUUUUUCCAAACUUGGAAUUCUCGGGUGCCAA: 0.296
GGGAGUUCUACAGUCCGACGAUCUGUCAUGCUGAUGUGAACACAUCUUACUCUGAAUAAAAAGGUGUUGCCACGUUUGUAGCACGAAGGAUCUCUAAUGGGUCUGAGUCUUCACUGGAGCGUGCCAUCUGGGCUGGAAUUCUCGGGUGCCAA: 0.344
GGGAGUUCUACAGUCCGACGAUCUAAAGUUAUUUAAGAAUAAAAAGAACUUUGGCUAUGAGAUGUAAUCACCUUGCCUUCCUCUCUAGCAUUCUGCAGGAGUGAUGCCCACGGAGCCUUGGGCUUCUGCGUGUUGGAAUUCUCGGGUGCCAA: 0.354
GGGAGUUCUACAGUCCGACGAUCAAAUGUUAUUUCCUGCAUCCCUUGGCUGUGAUGCCCCUCUCCCGAUUUCCCAGGGGCUCUGGGAGGGACCCUUCUAAGAAGAUUGGGCAGUUGGGUUUCUGGCUUGAGAUUGGAAUUCUCGGGUGCCAA: 0.621
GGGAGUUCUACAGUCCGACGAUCGAGGCUUUUAGCUGAGUCCAGGUAUAAAUUAGCCAUAAACAGUCAAUGACCCACAGUAGUCUUUAGUAAACUGUUGAGAAAUCUGGGUAAAAGGCUGCCUUCAAUUCUAAUGGAAUUCUCGGGUGCCAA: 0.367
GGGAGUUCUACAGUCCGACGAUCCCACGGAGUCGUGGGGUGUGCUGGGAGCUCCACUCUGCUUCUCUGACUUCUGCCUGGAGACUUAGGGCACCAGGGGUUUCUCGCAUAGGACCUUUCCACCACAGCCAGCAUGGAAUUCUCGGGUGCCAA: 0.682
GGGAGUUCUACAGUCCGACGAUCUGCAUCUUGCCUUGGCUUGAGCCUUUUCGUUUUCAAUGCUGACUUCUCCCCUUUCUCUCCUGUGCUCACCUUACCUUUCCAGAGUGUAAGGGACAACUUUUAAGGAGGCGUGGAAUUCUCGGGUGCCAA: 0.229
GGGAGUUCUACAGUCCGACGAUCUAGCUGGGUUUAUUCAAAGUGGGCGGGUCUGGGCUAUUCUUGAGAAUGUCCCUUCCAUUUCUGAGAACAAGUCAGCCCCUUCUACCUGCCUCCACCCAGGAGACUGAUGCUGGAAUUCUCGGGUGCCAA: 0.396
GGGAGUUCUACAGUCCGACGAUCUUUUGCUCACUUUUCAGUUGGGUUUUUUUUCUUAUUAAAUAGUAAGAGUUCUUAAUAUAUUCUGGAUACAAGUCCUUUUAAGACAUGAUUUGCAAAUAUUUUCUCCCAGUUGGAAUUCUCGGGUGCCAA: 0.392
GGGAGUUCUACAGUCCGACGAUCUUAAAUACAGUCUUCCAUUUGCAAGGGAAAAGUCUCUUGUAAUCCGAAUCUCUUUUUGCUUUCGAACUGCUAGUCAAGUGCGUCCACGAGCUGUUUACUAGGGAUCCCUCUGGAAUUCUCGGGUGCCAA: 0.228

Set 2
Target: Eukaryotic initiation factor 4A-I (EIF4A1, Homo sapiens, UniProt P60842, residues 1-406, full length assumed)
UniProt P60842, sequence (whole entry, looked up): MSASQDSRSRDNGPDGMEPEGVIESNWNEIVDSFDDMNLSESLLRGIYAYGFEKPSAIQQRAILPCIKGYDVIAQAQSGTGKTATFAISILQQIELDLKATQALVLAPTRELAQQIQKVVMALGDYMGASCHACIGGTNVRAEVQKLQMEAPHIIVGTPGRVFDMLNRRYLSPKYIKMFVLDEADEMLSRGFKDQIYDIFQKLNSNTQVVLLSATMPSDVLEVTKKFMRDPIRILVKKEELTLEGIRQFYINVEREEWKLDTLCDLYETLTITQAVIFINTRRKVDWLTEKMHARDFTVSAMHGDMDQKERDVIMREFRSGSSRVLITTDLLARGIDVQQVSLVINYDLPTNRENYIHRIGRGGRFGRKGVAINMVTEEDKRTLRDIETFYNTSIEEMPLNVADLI
Technique: RNA Bind-n-Seq
Molecule type: RNA
Sample: in vitro
Tested at: not given
Notes: 4-mer, random 30-nt RNA, single round
With: RocA, ADP, phosphate
Relative to: input library
Direction: higher = stronger binding
Endpoint: 4-mer enrichment
GGCC: 0.646 fold
CUUC: 0.488 fold
CGUG: 0.869 fold
GAAA: 1.66 fold
CAGA: 1.29 fold
UGUG: 1.15 fold
UGAA: 1.32 fold
AACC: 0.679 fold
AACG: 0.878 fold
AUGG: 1.15 fold
AAUG: 1.19 fold
CUGC: 0.587 fold
CUUG: 0.722 fold
GUAC: 0.769 fold
CAUC: 0.587 fold
CUGA: 1.01 fold

Set 3
Target: Prothrombin, mature alpha-thrombin (F2, Homo sapiens, UniProt P00734)
Technique: aptamer microarray, sandwich
Molecule type: DNA with 2'F-ANA
Sample: in vitro
Tested at: 200 nM
Notes: whole 15-mer aptamer, many near background
With: Cy3 exosite-II aptamer, 400 nM
Direction: higher = stronger binding
Endpoint: mean fluorescence intensity
Sequence: GGTTGGTGTGGTTGG
2'F-ANA at 2 4 7 9: 385 a.u.
2'F-ANA at 2 7 10 12 13 14 15: 117 a.u.
2'F-ANA at 1 2 3 5 6 9 12 13 15: 126 a.u.
2'F-ANA at 5 6 7 9 10 11 12 14 15: 49.2 a.u.
2'F-ANA at 1 3 5 6 9 11 13: 52.5 a.u.
2'F-ANA at 1 3 5 7 8 10 12 13 14 15: 48.5 a.u.
2'F-ANA at 2 4 5 6 9 10 11 12: 54.3 a.u.
2'F-ANA at 4 5 6 7 8 9: 79.3 a.u.
2'F-ANA at 1 3 4 7 9 11 12 13: 221 a.u.
2'F-ANA at 2 3 4 5 8 9 11 12 14: 51.4 a.u.
2'F-ANA at 1 3 6 8 10 11 12 13: 94.9 a.u.
2'F-ANA at 1 3 4 5 7 10 11 15: 50.6 a.u.
2'F-ANA at 2 3 5 6 8 10 13: 52.7 a.u.
2'F-ANA at 1 3 4 8 11 15: 217 a.u.
2'F-ANA at 1 3 4 5 6 8 10 11 12 13 14 15: 68.4 a.u.
2'F-ANA at 2 3 5 6 8 10 11 12 13 14 15: 53 a.u.
2'F-ANA at 1 3 4 5 6 7 9: 64.1 a.u.
2'F-ANA at 1 2 3 4 8 9 11 12 15: 332 a.u.
2'F-ANA at 3 6 9 10 11 13 14: 357 a.u.
2'F-ANA at 2 4 7 8 10 12 15: 148 a.u.
2'F-ANA at 1 2 3 4 8 10 13 14: 52 a.u.
2'F-ANA at 1 4 5 6 8 10 11 13 15: 48.7 a.u.

Set 4
Target: Histone acetyltransferase KAT6A, winged helix 2, GST fusion (KAT6A, Homo sapiens, UniProt Q92794, residues 85-181)
Technique: protein binding microarray
Molecule type: double-stranded DNA, one strand shown
Sample: in vitro
Tested at: not given
Notes: 8-mer, flanks averaged, mean of 2 arrays, mostly near background
Relative to: not given
Direction: higher = stronger binding
Endpoint: E-score
Residues (chain): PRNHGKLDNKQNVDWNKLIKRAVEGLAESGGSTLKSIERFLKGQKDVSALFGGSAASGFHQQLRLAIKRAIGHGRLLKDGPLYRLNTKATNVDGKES
CTGCAATA: -0.044
GCCATCGA: 0.052
CTACAATA: -0.153
CCGATCCA: -0.089
ACTAACAC: -0.0661
ACATTTTG: 0.025
CCAACCGA: 0.167
GACGACGA: -0.138
GAGACGAC: -0.0257
GCTGTGCA: 0.0443
CAGGAACG: 0.00634
AGCCAGTA: 0.0429
CACACTAG: 0.0298
CCGTGACC: 0.029
TGTTAAAA: -0.0214
ACGAAATA: 0.136
CCCGTGAG: 0.0852
ATGCGGGC: 0.0596
CTCCTCTA: -0.159

Some of these lines once more (set 3):
2'F-ANA at 2 3 4 5 8 9 11 12 14: 51.4 a.u.
2'F-ANA at 4 5 6 7 8 9: 79.3 a.u.
2'F-ANA at 2 3 5 6 8 10 11 12 13 14 15: 53 a.u.
2'F-ANA at 1 3 4 5 6 7 9: 64.1 a.u.
